Results of several laboratories.
Numbered parts are unrelated; each lists some results of a single study.

Block 1 — technique: protein binding microarray; form: double-stranded DNA, one strand shown; medium: in vitro; concentration: not given; baseline: not given; direction: higher = stronger binding
Target: Histone acetyltransferase KAT6A, winged helix 1, GST fusion (KAT6A, Homo sapiens, UniProt Q92794, residues 1-85)
Notes: 8-mer, flanks averaged, mean of 2 arrays, mostly near background
Construct (chain): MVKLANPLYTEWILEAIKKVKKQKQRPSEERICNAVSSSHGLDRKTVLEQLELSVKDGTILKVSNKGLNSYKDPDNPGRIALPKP
Strand	E-score
CCAAGAGC	-0.0124
CTCCTGGC	-0.0373
AAGCAGTG	-0.14
ATCATGGA	-0.218
CCACATGG	-0.0747
CCCTGGCC	0.0449
AGTAAGGA	-0.0882
GCGCACGC	0.395
CCTGCAGG	-0.203
CTAATGAG	-0.0468
ACAACCTC	-0.056
ACCAAGAT	-0.178
CACATTCG	0.0376
CCCTCCAG	0.0476
GTCGCACA	0.146
AATTGGGT	-0.253
AATGATTG	-0.225
AGTGAGCA	-0.124
GATGTTAA	-0.131
AGAAGGGA	-0.0523
ACTCGCTA	-0.0186
AATATAGA	-0.0788
AATACCGT	0.242

Block 2 — technique: universal PBM; form: double-stranded DNA, one strand shown; medium: in vitro; concentration: 600 nM; direction: higher = stronger binding
Target: Sal-like protein 4, full length isoform A (SALL4, Homo sapiens, UniProt Q9UJQ4, residues 1-1053)
Sequence of UniProt Q9UJQ4 (whole entry, looked up): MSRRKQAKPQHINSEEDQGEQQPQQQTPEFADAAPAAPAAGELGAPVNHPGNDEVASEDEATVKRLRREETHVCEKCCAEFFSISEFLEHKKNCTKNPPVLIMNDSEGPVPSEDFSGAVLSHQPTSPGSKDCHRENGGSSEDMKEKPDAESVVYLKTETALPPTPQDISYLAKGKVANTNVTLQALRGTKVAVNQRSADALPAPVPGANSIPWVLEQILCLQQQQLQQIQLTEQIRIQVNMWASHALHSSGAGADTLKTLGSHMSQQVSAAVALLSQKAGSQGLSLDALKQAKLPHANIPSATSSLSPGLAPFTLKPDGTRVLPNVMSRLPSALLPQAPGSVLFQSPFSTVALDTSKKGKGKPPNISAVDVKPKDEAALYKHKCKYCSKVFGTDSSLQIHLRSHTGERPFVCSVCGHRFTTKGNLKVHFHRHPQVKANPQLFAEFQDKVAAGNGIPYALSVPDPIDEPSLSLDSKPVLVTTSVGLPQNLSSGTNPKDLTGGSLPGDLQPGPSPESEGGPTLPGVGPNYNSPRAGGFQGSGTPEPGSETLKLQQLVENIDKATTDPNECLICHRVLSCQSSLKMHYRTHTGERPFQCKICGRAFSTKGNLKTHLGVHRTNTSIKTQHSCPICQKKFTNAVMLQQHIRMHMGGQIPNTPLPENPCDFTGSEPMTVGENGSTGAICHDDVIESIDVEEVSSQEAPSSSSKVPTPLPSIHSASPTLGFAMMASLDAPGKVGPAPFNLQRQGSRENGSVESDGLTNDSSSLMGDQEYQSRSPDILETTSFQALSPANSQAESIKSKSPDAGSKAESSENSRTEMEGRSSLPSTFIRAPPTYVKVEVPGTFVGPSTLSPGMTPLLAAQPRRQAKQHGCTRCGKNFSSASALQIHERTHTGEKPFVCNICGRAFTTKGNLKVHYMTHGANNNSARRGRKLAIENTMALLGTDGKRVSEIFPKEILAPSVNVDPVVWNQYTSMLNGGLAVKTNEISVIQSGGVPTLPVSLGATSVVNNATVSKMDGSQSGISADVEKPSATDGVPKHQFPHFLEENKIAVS
Notes: 8-mer, flanks averaged, mean of replicates
Strand	E-score
ACGCCTTC	-0.114
CCTCCTAA	0.0197
AAGCGTAT	-0.00751
AGATGGAT	-0.101
TCGACAAA	0.137
AAGAAGGT	0.0515
GTGGGTGA	-0.0533
TCGCACAA	-0.00146
GGGTCACC	-0.348
ACACACCC	-0.123
AGACTTAT	0.217
GGATAGTA	0.208
AAATGTCA	0.134
ATTTCTTA	0.279
ACTGCAAC	-0.184
GAAGCTCA	-0.137
GTTACAGA	0.0162

Block 3 — technique: RNA Bind-n-Seq; form: RNA; medium: in vitro; concentration: 200 nM; notes: whole 134-nt RNA, ends assumed; together with: 150 mM KCl; baseline: input library; direction: higher = stronger binding
Target: Fragile X messenger ribonucleoprotein 1, C-terminal low-complexity region (Fmr1, Mus musculus, UniProt P35922)
All sequences stand within: GGGAGUUCUACAGUCCGACGAUC … UGGAAUUCUCGGGUGUCAAGG
Strand	log2 enrichment
CCUCAAGUCCUGUGCUACACAUCGUAUGUACCGAAUCGGAGGUGGAAAAAGGAAAGUAUUAUGUUACGCCGUUCGGAUCUGCACUUCCAG	0.0919
CUGUGCUACACAUCGUAUGUACCGAAUCGGUUUUUUUGGGGUUUUUUUGGGUUUUUUUGGGAAAGUAUUAUGUUACGCCGUUCGGAUCUG	-0.762
CACAGACAACAAGCACCCACACAGACACAGAGGGAAGGGGUUGGGAUGGGGACAGGGUGCACAGCAGGGCGGGGUAGGACCCCAGCCCCU	1.24
GUCCUGUGCUACACAUCGUAUGUACCGAAUCAAAUUUAAAUUUUUUUAAAUUUUUAAAAAAGUAUUAUGUUACGCCGUUCGGAUCUGCAC	-1.28
UUUGGCAAUGAGAUCUAAACCAGACAAAGACCUCCUUAUGGAAGAAGAUGACAUGGCCUUGGCAAAUGUAGUCAUGCAGGAAGCUCAGAA	-1.6
UCAAGUCCUGUGCUACACAUCGUAUGUACCGAAUCGGCCGGGCCGGGGCCGGGGAAAGUAUUAUGUUACGCCGUUCGGAUCUGCACUUCC	-0.0542
AGUCCUGUGCUACACAUCGUAUGUACCGAAUCGGGGCCCCGGCCCCGGGGCCCCGGGGAAAGUAUUAUGUUACGCCGUUCGGAUCUGCAC	-1.51
UAACUUUAGAGGAGGAUCUGAUGGAUAUGGCAGUGGACGUGGAUUUGGGGAUGGCUAUAAUGGGUAUGGAGGAGGACCUGGAUGUGGCAA	0.19
CUCAAGUCCUGUGCUACACAUCGUAUGUACCGAAUCGGUUGGGUUGGGUUGGGAAAGUAUUAUGUUACGCCGUUCGGAUCUGCACUUCCA	1.16
GUCCUGUGCUACACAUCGUAUGUACCGAAUCGGGCCCCCGGGCCCCCGGGCCCCCGGGAAAGUAUUAUGUUACGCCGUUCGGAUCUGCAC	-0.837
UUGCGCCUGUCCCGGGUGAAGUGUGUCGGCCUCUCCGCACGCACCACGGAGACCAGCAGUGCAGUCAUGUGCCUGGACCUUGCAGCUUCC	-0.00234
AGUCCUGUGCUACACAUCGUAUGUACCGAAUCGGGCCCCCGGCCCCCGGGCCCCCGGGAAAGUAUUAUGUUACGCCGUUCGGAUCUGCAC	-0.819
UUCAAGGCCAUGAAGGACCUGUUUAUGCGGUGCAUGCUGUUUACCAGAGGAGGACAUCAGAUCCUGCAUUAUGUACACUGAUCGUUUCUG	-1.06
AAGUCCUGUGCUACACAUCGUAUGUACCGAAUCGGGUUUGGGUUUGGGGUUUGGGGAAAGUAUUAUGUUACGCCGUUCGGAUCUGCACUU	0.837

Block 4 — organism: Saccharomyces cerevisiae; effect on: cell growth; technique: competitive growth deep sequencing; form: peptide; notes: peptide tiling library; together with: cyclin E2-Cln2 fusion; direction: direction not given
Sequence	enrichment score
RQVRRDLFAF	-0.334
KRCATPVIIDEILPSK	0.642
ATNSSHTDAHEILVSD	0.688
SPPRGRRLFPPGPAGF	-0.503
NSMKELNFSHLPSNSV	0.567
HPESPPRKRLKSKGSD	4.35
GPVKLEFDVSDGAT	0.282
PHKTFRKLRLFDTPHT	-1.82
GTPKRCLDLSNLSSGE	0.0457
ESSQLTVQAEFDMSAI	0.662
DKYDEGLYRFNSLNDL	0.333
NESHLDKEHDAVEVAD	0.434
ASVLSKPIFCFVKD	0.106

A few entries again (block 1):
Strand	E-score
CTAATGAG	-0.0468
GCGCACGC	0.395
ATCATGGA	-0.218
AAGCAGTG	-0.14
ACCAAGAT	-0.178
CCACATGG	-0.0747
CCCTGGCC	0.0449
